Measurements gathered from unrelated publications.
Parts stem from different laboratories: compare values within a part only. Substitutions count along the parent as printed.

Series 1 — target: CCND3, cyclin fold, Cln2 fusion (human); technique: yeast growth competition, sequencing; sample: yeast; setting: weak parent motif; relative to: not given; reading: higher = stronger binding
Starting sequence: CDKN1B docking peptide (human); PSACRNLFGPVDH
`R5K F8L`: “normalised enrichment score” 0.0522.
`F8Q` — result for “normalised enrichment score”: 0.152.
`G9S` — result for “normalised enrichment score”: 0.0912.
`D12V`: “normalised enrichment score” 0.151.
`R5T`: “normalised enrichment score” 0.0601.
Under “normalised enrichment score”, `L7W` is recorded as 0.0853.
Under “normalised enrichment score”, `L7E` is recorded as 0.141.
For `A3H`, “normalised enrichment score” read 0.113.
`R5M` — result for “normalised enrichment score”: 0.0574.
Under “normalised enrichment score”, `S2K` is recorded as 0.141.
For `V11M`, “normalised enrichment score” read 0.135.
For `A3K`, “normalised enrichment score” read 0.0959.
For `D12E`, “normalised enrichment score” read 0.0641.
`S2N`: “normalised enrichment score” 0.0864.

Series 2 — technique: RNA Bind-n-Seq; form: RNA; sample: in vitro; tested at: not given; relative to: input RNA pool; reading: higher = stronger binding
Target: RING finger protein unkempt homolog, zinc fingers 1-6, GST-SBP tag (UNK, Homo sapiens, UniProt Q9C0B0, residues 30-357)
UniProt Q9C0B0, sequence (30-357, looked up): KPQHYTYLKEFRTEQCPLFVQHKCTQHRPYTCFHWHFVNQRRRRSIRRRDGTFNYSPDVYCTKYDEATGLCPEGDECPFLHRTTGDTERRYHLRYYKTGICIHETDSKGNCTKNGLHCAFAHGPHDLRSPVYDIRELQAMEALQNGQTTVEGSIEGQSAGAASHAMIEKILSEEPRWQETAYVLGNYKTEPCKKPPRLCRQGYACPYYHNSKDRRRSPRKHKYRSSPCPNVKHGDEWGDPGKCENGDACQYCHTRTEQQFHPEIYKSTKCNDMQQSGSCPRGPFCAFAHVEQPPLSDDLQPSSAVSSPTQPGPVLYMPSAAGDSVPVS
Setting: RNA with constant flanks, human and mouse sites, ends assumed
The bound/input enrichment of `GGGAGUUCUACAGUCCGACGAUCUUGGACAUCCUCCUUCAGGAUACCACCAAAGAACCUUUGGAUCUGCCUGACAACCCCCGCAAUAGGCAUUUUACCAACAGCGUGCCUAACCCUAGGAUCUCAGAUGCUGAACUUGAAGCUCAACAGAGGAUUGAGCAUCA` is reported as 0.768 ratio.
`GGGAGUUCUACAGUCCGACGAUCAUCAUUGGUUAUGCCAGAAACCCUUCACUGAAGCAGCAGCUGUUCUCAUAUGCUAUCCUGGGAUUUGCCUUGUCUGAAGCUAUGGGUCUCUUUUGUUUGAUGGUUGCGUUCUUGAUCUUGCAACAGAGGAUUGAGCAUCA` gave a bound/input enrichment of 0.125 ratio.
With `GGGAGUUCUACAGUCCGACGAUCCCAAACCGAUUUGAUAUGAACGUGUGUUCUCGAUUCGUGAAGUCCUUAAAUGAAGAGGAUAGUAAAAAUAUUCAAGAUCAAGUUAACUCUGACCUGGAGGUGGCAUCUGUCUUAUUUAAACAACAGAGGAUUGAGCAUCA` the bound/input enrichment was 0.256 ratio.
The bound/input enrichment of `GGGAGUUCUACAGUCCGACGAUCGGAACAUUUCAGGAAUGAAGAUAAUAACAUAGAUUUUAUGGUGGCCUCUAUGCAGUUUAUUAACAUUGUAGUCCAUUCAGUAGAAGACAUGAACUUCAGAGUUCAUCUACAAUAUGAAUUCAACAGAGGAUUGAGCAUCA` is reported as 2.68 ratio.
With `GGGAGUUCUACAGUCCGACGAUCGGGAUUUACAUGGUUUAUUGUCGAAAACACAAGAAAACUGCACAUAACUCGGAAGCUGAUUUAGAAGAAAGUUUUAAUGAGCAUGAACUGGAGCCCUCAUCUCCAAAGACUAAGAAGAAACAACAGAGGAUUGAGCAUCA` the bound/input enrichment was 0.451 ratio.
With `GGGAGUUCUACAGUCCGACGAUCAUCCACCAGCUUCUCUCUCACACGCACACAUGCACACACACACAAUUUUAACUUGGUUUUUCUUUUUUGUAAAUAAUGUACAUACUGUCAAUUUUUUAUUAAAGAAAUAUGCUUUGAUGUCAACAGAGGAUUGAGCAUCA` the bound/input enrichment was 1.02 ratio.
For `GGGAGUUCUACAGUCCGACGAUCUGAAUACACAGUACAUCAUACAUCCUUUACAAGCAAGUUCAAUGGAGAUUACGUUGAAAUCAUAGAAGAUGCAAAUGACCUUUCAAAGUCAACACAAUGUGUUCUGAAACCUCGUGACUACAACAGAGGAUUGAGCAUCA`, the bound/input enrichment was 0.262 ratio.
For `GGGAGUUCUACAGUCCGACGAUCUGCUUAAUGUAUUAGACAUUUUUAGCCCAUAAUUAAAACAUUGUUGCUUUUACACAGGUGUAGUUUGGUGCAUUUCAUUCAUAGUGUUUUAAAGUUAUUUAUAAAUUAACCAAUUACACUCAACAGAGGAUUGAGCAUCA`, the bound/input enrichment was 7.65 ratio.

Series 3 — technique: DHFR PCA, deep sequencing; sample: yeast; with: (+)-ABA 0.39 µM; relative to: wild-type fitted maximum; reading: higher = stronger binding
Target: ABI1, truncated, D143A, DHFR fusion (Arabidopsis thaliana)
Setting: methotrexate growth selection, single substitutions
Starting sequence: PYL1, truncated, DHFR fusion (Arabidopsis thaliana); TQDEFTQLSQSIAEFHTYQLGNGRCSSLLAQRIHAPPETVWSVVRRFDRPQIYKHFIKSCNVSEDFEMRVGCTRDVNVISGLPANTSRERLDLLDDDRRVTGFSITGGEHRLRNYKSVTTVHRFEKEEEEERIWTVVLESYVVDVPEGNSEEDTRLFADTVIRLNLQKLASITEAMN; partner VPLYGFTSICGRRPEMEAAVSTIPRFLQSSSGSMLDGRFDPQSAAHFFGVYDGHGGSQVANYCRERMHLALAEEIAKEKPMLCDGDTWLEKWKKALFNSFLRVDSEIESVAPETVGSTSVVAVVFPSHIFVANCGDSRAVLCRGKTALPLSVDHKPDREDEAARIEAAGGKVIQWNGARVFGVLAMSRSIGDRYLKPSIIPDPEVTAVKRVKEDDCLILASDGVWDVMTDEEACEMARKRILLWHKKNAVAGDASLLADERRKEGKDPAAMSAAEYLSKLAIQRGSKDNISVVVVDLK
Under “relative binding score”, `F47C` is recorded as -3.36%.
Under “relative binding score”, `I162W` is recorded as 1.63%.
Under “relative binding score”, `S42L` is recorded as 1.58%.
`T101Y`: “relative binding score” 4.27%.
Under “relative binding score”, `R90W` is recorded as -15.1%.
`V40Y` — result for “relative binding score”: -2.8%.
For `D144M`, “relative binding score” read 1.69%.
Under “relative binding score”, `C72A` is recorded as 73.8%.
`S140Q` — result for “relative binding score”: 21.1%.
`T120D`: “relative binding score” -13.2%.
For `Q7E`, “relative binding score” read 47.7%.
`D97W`: “relative binding score” 5.94%.
Under “relative binding score”, `R123L` is recorded as 9.83%.
Under “relative binding score”, `N177R` is recorded as 27.1%.
Under “relative binding score”, `I79V` is recorded as 62.5%.
For `Y141N`, “relative binding score” read -12%.
For `L82W`, “relative binding score” read 47%.
For `T39K`, “relative binding score” read 32.5%.
Under “relative binding score”, `L8I` is recorded as -0.462%.

Further values, each from its own experiment
For `PhoQ, residues 284 288 289 292 302 303 AGCYAI`, the fold induction was 3.46 (PhoP, residues 12 14 15 18 19 DLLYY (Escherichia coli, UniProt P23836); Sort-seq, refers to: YFP reporter; E. coli; PhoQ-PhoP variant library, with: 10 µM Mg2+; relative to: high Mg2+ state, higher = stronger signaling).

Some of these lines once more (series 1):
For `A3H`, “normalised enrichment score” read 0.113.
`S2N`: “normalised enrichment score” 0.0864.
`D12V`: “normalised enrichment score” 0.151.
`R5K F8L`: “normalised enrichment score” 0.0522.
Under “normalised enrichment score”, `S2K` is recorded as 0.141.
